Published values pooled from the literature.
Each line is one published result; not all experiments were run side by side. Substitutions count along the parent as printed.
cas1/cas2 1-305; 1-94: cas1/cas2 1-305; 1-94 (Escherichia coli)
FGFR3: FGFR3 23-375 (Homo sapiens, UniProt P22607)
NAC transcription factor full length assumed: NAC transcription factor full length assumed (Triticum aestivum, UniProt A0A7G7XYH6)
MBNL1: MBNL1 1-92 (Homo sapiens, UniProt Q9NR56)
Chain of UniProt Q9NR56 (whole entry, looked up): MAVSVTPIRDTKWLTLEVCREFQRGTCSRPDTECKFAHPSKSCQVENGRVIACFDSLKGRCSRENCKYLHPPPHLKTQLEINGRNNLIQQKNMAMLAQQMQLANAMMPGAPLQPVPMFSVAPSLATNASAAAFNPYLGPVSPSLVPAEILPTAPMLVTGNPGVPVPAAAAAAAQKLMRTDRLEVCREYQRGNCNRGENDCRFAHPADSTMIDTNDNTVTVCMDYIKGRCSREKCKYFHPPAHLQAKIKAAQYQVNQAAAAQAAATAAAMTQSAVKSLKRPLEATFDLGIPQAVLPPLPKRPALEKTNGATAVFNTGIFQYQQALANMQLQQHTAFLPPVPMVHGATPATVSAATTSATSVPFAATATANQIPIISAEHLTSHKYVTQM
T1: cas1/cas2 1-305; 1-94 (Escherichia coli); chain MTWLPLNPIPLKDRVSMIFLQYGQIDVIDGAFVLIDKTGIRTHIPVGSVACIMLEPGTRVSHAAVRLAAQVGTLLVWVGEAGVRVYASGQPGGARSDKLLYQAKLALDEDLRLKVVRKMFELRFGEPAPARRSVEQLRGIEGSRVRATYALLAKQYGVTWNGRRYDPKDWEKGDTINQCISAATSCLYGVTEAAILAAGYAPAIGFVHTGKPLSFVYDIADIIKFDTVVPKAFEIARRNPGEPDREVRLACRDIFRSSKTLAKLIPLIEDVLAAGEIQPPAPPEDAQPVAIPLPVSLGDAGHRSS; chain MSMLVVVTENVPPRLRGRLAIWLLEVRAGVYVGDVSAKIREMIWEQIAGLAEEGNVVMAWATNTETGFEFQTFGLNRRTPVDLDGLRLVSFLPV
P1: APOBEC3G/EYFP (Homo sapiens); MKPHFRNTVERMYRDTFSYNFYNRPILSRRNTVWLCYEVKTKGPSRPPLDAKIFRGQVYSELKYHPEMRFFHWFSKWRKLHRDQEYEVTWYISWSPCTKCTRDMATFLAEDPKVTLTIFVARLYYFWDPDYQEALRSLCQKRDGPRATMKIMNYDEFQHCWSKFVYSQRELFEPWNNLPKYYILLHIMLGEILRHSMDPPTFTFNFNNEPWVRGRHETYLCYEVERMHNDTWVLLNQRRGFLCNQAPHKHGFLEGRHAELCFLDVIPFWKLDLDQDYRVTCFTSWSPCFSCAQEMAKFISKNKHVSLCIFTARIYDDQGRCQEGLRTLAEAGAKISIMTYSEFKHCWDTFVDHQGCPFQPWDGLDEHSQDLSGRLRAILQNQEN
B1: EzrA 216-562 (Bacillus subtilis, UniProt O34894); chain PKLLADCKQTVPGQIAKLKDGYGEMKEKGYKLEHIQLDKELENLSNQLKRAEHVLMTELDIDEASAILQLIDENIQSVYQQLEGEVEAGQSVLSKMPELIIAYDKLKEEKEHTKAETELVKESYRLTAGELGKQQAFEKRLDEIGKLLSSVKDKLDAEHVAYSLLVEEVASIEKQIEEVKKEHAEYRENLQALRKEELQARETLSNLKKTISETARLLKTSNIPGIPSHIQEMLENAHHHIQETVNQLNELPLNMEEAGAHLKQAEDIVNRASRESEELVEQVILIEKIIQFGNRFRSQNHILSEQLKEAERRFYAFDYDDSYEIAAAAVEKAAPGAVEKIKADISA
P2: SNF1 residues 54-391 (Saccharomyces cerevisiae); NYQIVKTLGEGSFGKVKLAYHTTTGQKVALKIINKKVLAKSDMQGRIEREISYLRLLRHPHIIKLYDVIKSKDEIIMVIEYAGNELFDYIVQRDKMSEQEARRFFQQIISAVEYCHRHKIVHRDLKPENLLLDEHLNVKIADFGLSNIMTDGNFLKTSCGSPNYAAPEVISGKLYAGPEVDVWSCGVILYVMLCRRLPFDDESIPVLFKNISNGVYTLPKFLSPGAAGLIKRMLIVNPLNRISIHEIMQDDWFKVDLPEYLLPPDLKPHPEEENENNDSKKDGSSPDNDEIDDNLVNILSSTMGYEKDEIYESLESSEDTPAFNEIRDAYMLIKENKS
P3: SFI1 residues 1-296 (Saccharomyces cerevisiae); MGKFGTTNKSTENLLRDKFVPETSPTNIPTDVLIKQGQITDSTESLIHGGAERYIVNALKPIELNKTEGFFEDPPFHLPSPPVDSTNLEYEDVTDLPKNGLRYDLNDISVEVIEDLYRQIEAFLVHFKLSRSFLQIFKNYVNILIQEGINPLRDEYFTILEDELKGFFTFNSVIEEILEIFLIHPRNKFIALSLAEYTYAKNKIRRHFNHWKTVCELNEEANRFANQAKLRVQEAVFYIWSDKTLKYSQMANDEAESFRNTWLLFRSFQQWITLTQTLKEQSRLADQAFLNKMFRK
P4: Fgfr1 (Mus musculus); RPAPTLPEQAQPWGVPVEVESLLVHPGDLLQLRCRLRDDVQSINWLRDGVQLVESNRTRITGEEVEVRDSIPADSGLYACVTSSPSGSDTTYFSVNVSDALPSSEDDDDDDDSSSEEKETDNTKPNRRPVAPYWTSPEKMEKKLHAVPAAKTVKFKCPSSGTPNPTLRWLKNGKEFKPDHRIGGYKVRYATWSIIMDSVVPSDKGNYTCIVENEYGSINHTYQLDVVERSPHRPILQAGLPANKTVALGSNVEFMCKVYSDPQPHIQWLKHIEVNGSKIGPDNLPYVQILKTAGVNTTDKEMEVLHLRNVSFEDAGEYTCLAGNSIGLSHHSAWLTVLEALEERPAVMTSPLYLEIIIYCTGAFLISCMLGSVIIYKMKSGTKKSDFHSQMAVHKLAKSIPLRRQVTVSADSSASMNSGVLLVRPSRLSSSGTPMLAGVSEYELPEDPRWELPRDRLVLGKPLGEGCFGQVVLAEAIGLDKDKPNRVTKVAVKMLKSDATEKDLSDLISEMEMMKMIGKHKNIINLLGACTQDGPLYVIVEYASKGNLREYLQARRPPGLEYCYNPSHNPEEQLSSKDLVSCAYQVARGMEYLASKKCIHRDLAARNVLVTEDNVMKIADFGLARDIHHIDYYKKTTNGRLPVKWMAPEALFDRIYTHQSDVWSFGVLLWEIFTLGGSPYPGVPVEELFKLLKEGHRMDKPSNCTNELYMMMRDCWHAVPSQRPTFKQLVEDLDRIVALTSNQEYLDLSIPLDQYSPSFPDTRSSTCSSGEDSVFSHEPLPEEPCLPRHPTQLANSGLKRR
P5: ALIS5 (Arabidopsis thaliana); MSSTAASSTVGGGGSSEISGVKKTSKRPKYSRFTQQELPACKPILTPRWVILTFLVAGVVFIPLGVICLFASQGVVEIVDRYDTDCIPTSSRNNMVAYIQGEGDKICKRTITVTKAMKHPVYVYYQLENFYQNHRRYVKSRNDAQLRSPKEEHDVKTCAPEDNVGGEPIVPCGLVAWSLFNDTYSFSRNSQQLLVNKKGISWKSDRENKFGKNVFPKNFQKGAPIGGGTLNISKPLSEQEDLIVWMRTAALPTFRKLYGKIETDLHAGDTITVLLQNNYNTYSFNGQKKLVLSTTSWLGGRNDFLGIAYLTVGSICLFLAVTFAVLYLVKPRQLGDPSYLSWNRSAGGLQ
Chain of UniProt P0AE01 (whole entry, looked up): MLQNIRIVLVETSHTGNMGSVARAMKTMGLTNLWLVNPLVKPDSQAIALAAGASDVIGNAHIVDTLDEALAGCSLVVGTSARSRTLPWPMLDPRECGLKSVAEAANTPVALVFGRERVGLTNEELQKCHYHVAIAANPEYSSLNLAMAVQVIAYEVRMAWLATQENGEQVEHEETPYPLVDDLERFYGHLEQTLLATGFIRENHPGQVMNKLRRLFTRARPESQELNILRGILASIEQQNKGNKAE
Chain of UniProt P94426 (whole entry, looked up): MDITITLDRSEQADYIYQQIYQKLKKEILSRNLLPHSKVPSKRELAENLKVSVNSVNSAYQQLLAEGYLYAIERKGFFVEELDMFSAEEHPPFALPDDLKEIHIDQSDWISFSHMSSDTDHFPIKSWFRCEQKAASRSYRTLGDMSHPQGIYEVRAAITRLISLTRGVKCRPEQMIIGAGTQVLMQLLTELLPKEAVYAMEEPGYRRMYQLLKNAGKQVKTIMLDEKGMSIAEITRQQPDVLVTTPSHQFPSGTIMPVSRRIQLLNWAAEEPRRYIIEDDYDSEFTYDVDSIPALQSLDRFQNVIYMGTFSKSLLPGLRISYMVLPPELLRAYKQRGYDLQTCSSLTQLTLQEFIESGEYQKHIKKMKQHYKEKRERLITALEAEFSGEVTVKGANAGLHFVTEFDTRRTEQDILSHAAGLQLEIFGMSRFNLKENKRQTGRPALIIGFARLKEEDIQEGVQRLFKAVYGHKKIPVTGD
Chain of UniProt P26358 (whole entry, looked up): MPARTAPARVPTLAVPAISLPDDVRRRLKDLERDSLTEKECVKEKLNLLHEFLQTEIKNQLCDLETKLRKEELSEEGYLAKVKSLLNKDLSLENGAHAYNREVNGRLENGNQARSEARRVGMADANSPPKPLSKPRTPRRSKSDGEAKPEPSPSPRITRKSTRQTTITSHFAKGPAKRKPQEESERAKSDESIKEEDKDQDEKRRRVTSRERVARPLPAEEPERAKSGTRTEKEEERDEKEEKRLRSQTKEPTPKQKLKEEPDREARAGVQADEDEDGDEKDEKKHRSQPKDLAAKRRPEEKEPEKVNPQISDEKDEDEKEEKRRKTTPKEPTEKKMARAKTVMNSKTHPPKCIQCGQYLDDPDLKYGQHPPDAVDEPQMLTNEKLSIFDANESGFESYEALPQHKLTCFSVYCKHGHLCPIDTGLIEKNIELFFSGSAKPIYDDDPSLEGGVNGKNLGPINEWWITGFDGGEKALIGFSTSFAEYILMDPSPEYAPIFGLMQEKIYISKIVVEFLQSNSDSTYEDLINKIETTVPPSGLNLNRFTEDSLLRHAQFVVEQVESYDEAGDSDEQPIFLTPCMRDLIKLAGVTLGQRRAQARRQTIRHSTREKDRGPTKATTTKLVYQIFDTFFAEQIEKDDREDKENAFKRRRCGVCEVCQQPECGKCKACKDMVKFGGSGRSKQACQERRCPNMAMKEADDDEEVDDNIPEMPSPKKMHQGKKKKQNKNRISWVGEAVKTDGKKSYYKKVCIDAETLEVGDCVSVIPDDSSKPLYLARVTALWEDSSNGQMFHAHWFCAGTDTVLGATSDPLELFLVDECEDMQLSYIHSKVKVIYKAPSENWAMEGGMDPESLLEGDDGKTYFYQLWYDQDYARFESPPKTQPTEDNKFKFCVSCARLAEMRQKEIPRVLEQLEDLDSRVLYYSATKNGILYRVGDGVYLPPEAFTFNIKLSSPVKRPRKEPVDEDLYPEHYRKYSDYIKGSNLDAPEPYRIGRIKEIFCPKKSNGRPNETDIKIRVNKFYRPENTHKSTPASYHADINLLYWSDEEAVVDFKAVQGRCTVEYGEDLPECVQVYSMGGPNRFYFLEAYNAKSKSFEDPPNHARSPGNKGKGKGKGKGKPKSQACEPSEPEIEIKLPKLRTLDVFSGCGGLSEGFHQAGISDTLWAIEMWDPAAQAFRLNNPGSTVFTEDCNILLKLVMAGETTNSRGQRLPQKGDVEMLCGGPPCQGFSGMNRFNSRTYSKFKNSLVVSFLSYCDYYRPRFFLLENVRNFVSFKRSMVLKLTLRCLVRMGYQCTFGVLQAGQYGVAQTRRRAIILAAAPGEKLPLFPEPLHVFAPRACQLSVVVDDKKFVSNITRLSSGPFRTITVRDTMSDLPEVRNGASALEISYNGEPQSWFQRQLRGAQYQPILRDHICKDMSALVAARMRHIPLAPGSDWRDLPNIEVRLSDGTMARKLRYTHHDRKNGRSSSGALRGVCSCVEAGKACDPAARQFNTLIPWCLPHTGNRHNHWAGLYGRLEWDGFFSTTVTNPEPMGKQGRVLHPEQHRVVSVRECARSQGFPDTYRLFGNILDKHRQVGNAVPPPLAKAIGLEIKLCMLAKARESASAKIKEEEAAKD
Chain of UniProt P08199 (whole entry, looked up): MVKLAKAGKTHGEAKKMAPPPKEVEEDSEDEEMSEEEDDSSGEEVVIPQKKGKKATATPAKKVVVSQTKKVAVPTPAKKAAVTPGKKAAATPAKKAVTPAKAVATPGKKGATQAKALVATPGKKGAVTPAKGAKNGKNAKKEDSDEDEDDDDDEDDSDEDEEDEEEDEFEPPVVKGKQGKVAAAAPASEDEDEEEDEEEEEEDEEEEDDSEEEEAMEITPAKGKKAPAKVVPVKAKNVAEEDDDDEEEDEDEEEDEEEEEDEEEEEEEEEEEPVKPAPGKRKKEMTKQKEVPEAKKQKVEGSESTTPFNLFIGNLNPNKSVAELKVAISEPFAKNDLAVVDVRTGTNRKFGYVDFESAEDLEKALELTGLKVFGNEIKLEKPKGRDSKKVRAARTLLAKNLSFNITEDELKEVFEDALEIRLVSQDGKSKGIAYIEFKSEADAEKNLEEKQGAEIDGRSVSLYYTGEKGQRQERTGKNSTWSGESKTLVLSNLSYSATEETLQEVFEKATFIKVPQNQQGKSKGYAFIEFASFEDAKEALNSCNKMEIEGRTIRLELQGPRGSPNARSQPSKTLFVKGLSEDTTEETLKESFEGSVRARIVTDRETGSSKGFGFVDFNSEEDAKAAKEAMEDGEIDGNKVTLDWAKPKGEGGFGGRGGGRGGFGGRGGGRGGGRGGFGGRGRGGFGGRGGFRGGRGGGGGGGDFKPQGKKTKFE

Substance	tested on	test	system	setting	scale	quantity	value
P1 W127A	APOBEC3G Renilla luciferase fusion (Homo sapiens)	BRET	293T	read off a plot	reference: unchanged protein, higher = more binding	relative binding	0.13
DNA 1 ATTTCAGCTACTCCGATGGCCCATATGCGGATC / DNA 2 CTAGGGCATATGGGCCATCGGAG (dsDNA)	T1, cas1/cas2 1-305; 1-94 (Escherichia coli)	EMSA	double-stranded DNA	binary complex, partial dissociation		binding	binds
B1 (EzrA 216-562)	ftsZ (Bacillus subtilis, UniProt P17865)	SPR		pH 6.5, read off a plot		Kd	< 10 µM
GGAUGCCUCCCGAGUGCAUCC (structured RNA)	NCL 299-459 (Mesocricetus auratus, UniProt P08199)	NMR	folded RNA			binding	binds
P1 Y125A	APOBEC3G Renilla luciferase fusion (Homo sapiens)	BRET	293T	read off a plot	reference: unchanged protein, higher = more binding	relative binding	0.35
DNA 1 CCACTGCTCACGTACAGAGCTGT / DNA 2 CAGCTCTGTACGTGAGCAGTGGA (dsDNA; 5mC opposite G, 23 bp)	TDG 111-308 N140A (Homo sapiens, UniProt Q13569)	EMSA	double-stranded DNA			binding	no binding
DNA 1 ATTTCAGCTACTCCGATGGCCCATATGCGGATC / DNA 2 GCATATGGGCCATCGGAGTAGCT (dsDNA)	T1, cas1/cas2 1-305; 1-94 (Escherichia coli)	EMSA	double-stranded DNA	binary complex, partial dissociation		binding	binds
GGGAGUGUGUACGAGGCAUUAGGCCGCCGAUGGUUUUGUGGCCGUUUGAGGUUCCUACGGCGGCUU (structured RNA; 2'-fluoro C/U, 3' inverted dT)	FGFR3	bead flow cytometry	folded RNA	100 nM		binding	binds
TATATGTTGTTAATATTGACAAGAAACAAGCTGCT (dsDNA)	NAC transcription factor full length assumed	EMSA	double-stranded DNA, one strand shown			binding	binds
P2 T157E	GAL4 BD/SNF1 residues 1-53 (Saccharomyces cerevisiae)	yeast two-hybrid		read off a plot	reference: NTD/CTD on glucose, higher = stronger interaction	relative interaction	150%
CCTTCTGATACCATCAAAAAGTTATAATTGGTACTTTTCATCATACCAAAGAG (dsDNA)	gabR full length assumed (Bacillus subtilis, UniProt P94426)	SEC-MALLS	double-stranded DNA, one strand shown	without GABA		binding	binds
GTATACCTGCAGCTGAGGCGAGCCGTTGGTGTGGATGGCAGGGGCAGGATTCGACTCTAGAGCGCA (ssDNA; stem-loop)	FGFR3	EMSA	single-stranded DNA	with: Mg2+ 5 mM		binding	no binding
P3 S10D T11D S42D S45D	SPC42 fragment (Saccharomyces cerevisiae)	yeast two-hybrid		read off a plot, with: Cdc31	reference: unchanged protein, higher = stronger interaction	relative interaction	0.27
ATTTCTCCAAGTTTCTAGACAAGTCTCTCA (dsDNA)	Heat stress transcription factor 1-340 (Actinidia chinensis, UniProt A0A2R6Q325)	EMSA	double-stranded DNA, one strand shown			binding	binds
P4 L402A V408A Y442F Y745F Y755F	PTK2 (Mus musculus)	proximity ligation assay	embryo sections	read off a plot	higher = more proximity	signal	85 puncta
CCGCCGAUGGUUUUGUGGCCGUUUGAGGUUCCUACGGCGG (structured RNA; hairpin, 2'-fluoro C/U, 3' inverted dT)	Fgfr3 21-369 (Mus musculus, UniProt Q61851)	bead flow cytometry	folded RNA	100 nM		binding	binds
CGCGGGGUGGAGCAGCCUGGUAGCUCGUCGGGCUCAUAACCCGAAGAUCGUCGGUUCAAAUCCGGCCCCCGCAACCA (tRNA (Escherichia coli); cloverleaf, unmodified)	trmJ 1-170 (Escherichia coli, UniProt P0AE01)	EMSA	folded RNA	Mg2+ 5 mM, with: sinefungin 500 µM		binding	no binding
CCUCCGCUGC (ssRNA (Homo sapiens))	MBNL1	NMR titration	RNA			binding	binds
TGAGCGTGCGTAGCGTGCGTAA (ssDNA; single strand, non-G4)	DNMT1 1-1616 (Homo sapiens, UniProt P26358)	ELISA	single-stranded DNA			binding	no binding
CCUGUCUCGCUUUUCCCCUCCGCUGCGGCCAC (ssRNA (Homo sapiens); hairpin)	MBNL1	NMR titration	folded RNA			binding	binds
TATATGTTGTTAATATTGACAAGACCAAAGCTGCT (dsDNA)	NAC transcription factor full length assumed	competition EMSA	double-stranded DNA, one strand shown			binding	no binding
GUCUCGCUUUUCCCCUCCGCUGCGGCC (ssRNA (Homo sapiens); hairpin)	MBNL1	NMR titration	folded RNA			binding	binds
P5 N181Q N231Q	ALA2 (Arabidopsis thaliana)	pull-down	yeast membranes	read off a plot	reference: unchanged protein, higher = more binding	relative binding	0.28

Some of these lines once more:
Substance	tested on	test	system	setting	scale	quantity	value
CCGCCGAUGGUUUUGUGGCCGUUUGAGGUUCCUACGGCGG (structured RNA; hairpin, 2'-fluoro C/U, 3' inverted dT)	Fgfr3 21-369 (Mus musculus, UniProt Q61851)	bead flow cytometry	folded RNA	100 nM		binding	binds
